Results from different studies.
Numbered parts are unrelated; each lists some results of a single study.
UniProt P42336, sequence (whole entry, looked up): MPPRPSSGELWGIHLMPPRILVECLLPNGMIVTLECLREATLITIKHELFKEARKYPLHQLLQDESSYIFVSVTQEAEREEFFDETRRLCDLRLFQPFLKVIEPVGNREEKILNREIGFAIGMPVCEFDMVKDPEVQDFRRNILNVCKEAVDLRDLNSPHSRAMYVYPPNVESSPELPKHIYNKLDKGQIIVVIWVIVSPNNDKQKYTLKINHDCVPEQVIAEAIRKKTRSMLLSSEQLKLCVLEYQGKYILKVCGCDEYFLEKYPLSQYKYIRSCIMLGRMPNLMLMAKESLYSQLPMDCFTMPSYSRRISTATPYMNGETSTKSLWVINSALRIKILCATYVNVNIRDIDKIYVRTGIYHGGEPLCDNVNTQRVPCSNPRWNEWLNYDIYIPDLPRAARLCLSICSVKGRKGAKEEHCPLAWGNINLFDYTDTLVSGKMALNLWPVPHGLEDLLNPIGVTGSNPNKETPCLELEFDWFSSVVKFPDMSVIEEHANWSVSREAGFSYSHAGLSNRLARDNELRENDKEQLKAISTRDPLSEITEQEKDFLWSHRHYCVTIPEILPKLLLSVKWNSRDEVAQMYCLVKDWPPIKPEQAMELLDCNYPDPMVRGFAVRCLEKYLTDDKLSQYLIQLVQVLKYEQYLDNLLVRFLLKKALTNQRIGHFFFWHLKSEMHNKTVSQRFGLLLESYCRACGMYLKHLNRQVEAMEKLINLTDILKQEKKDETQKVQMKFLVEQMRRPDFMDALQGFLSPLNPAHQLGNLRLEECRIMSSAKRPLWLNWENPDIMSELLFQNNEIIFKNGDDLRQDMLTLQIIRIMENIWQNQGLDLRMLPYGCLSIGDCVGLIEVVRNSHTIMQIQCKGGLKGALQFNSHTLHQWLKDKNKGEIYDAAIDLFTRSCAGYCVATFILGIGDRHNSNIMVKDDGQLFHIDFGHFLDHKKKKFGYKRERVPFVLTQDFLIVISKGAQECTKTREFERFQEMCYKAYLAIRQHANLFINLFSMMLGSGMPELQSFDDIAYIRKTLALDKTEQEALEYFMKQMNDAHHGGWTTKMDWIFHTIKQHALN
UniProt Q08881, sequence (whole entry, looked up): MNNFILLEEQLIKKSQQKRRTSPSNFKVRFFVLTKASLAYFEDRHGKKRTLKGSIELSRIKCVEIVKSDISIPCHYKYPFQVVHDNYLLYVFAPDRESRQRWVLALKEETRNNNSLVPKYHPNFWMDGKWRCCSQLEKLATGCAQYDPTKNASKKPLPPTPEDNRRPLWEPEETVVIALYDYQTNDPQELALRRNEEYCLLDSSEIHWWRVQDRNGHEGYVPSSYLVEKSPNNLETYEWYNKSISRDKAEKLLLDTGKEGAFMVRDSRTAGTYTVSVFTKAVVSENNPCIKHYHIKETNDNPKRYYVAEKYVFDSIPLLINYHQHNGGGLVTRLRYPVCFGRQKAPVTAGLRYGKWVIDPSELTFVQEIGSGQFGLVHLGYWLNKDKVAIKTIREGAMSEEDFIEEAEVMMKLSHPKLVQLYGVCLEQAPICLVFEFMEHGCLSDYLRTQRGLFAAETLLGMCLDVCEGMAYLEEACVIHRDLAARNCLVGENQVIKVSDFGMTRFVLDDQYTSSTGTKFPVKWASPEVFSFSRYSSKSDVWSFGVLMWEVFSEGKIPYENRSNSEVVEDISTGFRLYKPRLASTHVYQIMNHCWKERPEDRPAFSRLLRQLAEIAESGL
UniProt P23443, sequence (whole entry, looked up): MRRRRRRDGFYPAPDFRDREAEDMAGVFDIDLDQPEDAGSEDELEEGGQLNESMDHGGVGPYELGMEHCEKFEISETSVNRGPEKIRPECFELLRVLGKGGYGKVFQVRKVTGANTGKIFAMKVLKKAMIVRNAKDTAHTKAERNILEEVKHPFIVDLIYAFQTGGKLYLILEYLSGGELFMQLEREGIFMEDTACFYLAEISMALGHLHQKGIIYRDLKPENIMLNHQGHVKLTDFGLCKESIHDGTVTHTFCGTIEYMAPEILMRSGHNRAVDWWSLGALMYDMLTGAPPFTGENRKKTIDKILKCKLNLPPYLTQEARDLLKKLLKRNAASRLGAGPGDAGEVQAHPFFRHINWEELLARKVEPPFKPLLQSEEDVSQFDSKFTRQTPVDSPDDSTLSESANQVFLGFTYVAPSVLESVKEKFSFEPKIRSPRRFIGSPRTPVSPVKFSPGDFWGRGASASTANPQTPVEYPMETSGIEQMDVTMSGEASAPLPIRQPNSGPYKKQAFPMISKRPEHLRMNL
UniProt O15264, sequence (whole entry, looked up): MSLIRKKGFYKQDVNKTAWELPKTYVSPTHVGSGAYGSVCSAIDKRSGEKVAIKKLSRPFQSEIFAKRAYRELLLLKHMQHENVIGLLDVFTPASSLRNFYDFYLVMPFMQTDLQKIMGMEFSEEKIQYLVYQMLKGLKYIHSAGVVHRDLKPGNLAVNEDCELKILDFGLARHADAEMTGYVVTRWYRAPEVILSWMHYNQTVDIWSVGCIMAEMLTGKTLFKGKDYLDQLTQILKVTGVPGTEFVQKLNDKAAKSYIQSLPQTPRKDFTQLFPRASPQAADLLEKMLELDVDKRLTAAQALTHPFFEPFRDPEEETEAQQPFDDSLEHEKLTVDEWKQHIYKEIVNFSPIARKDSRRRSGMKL
UniProt P49761, sequence (whole entry, looked up): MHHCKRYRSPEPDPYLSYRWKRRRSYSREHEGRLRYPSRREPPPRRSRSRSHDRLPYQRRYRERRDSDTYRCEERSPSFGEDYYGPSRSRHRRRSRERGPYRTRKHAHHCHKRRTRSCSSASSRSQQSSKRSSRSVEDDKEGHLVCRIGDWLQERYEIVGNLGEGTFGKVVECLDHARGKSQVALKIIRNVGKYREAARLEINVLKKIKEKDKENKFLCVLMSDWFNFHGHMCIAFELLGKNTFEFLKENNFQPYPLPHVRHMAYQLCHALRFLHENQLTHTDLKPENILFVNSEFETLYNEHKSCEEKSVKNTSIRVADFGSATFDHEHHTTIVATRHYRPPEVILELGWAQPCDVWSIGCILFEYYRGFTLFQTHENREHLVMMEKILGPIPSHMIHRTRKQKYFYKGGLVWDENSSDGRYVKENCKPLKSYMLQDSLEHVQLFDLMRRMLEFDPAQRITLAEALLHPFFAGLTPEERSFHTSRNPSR

Set 1 — effect on: enzyme activity; mode: inhibitor; concentration: 0.5 µM; baseline: control; endpoint: remaining activity
Target: Serine/threonine-protein kinase 24 (STK24, Homo sapiens, UniProt Q9Y6E0)
UniProt Q9Y6E0, sequence (whole entry, looked up): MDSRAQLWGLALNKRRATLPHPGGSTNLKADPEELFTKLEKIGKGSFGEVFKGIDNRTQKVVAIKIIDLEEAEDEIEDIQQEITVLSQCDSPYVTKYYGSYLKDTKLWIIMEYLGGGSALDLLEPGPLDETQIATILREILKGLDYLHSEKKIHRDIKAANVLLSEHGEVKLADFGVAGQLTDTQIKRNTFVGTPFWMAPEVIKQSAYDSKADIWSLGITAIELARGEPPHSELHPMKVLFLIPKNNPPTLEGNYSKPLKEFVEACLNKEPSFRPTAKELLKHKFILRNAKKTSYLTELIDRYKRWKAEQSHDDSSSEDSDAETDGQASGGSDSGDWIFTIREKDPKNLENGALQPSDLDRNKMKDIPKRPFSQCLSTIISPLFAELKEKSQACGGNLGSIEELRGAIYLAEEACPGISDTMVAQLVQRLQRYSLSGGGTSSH
O=C(CCCc1ccc(-c2ccccc2F)cc1)Nc1ccc(O)cc1: 88.9%
Cn1c2ccccc2c2c3c(c4c5ccccc5n(CCC#N)c4c21)CNC3=O: 62.8%
COc1cc2nccc(Oc3ccc(NC(=S)NC(=O)c4ccccc4C)cc3)c2cc1OC: 101%
O=S(=O)(c1cccc2cnccc12)N1CCCNCC1: 70.2%
OCC(O)CCON=C1C(c2c(O)[nH]c3ccccc23)=Nc2ccccc21 (stereo not drawn): 51.9%
O=C1NC(=O)C(c2cn(CCCn3ccnc3)c3ccccc23)=C1Nc1ccccc1: 51.7%
Nc1ncnc2n[nH]c(Nc3ccc(F)cc3)c12: 81.6%
C#Cc1cccc(Nc2ncnc3cc(OCCOC)c(OCCOC)cc23)c1: 115%
O=C(Nc1cccc(Nc2cc(Nc3cccc(C(F)(F)F)c3)ncn2)c1)C1CC1: 97.1%
O=C1NC(=O)C(c2cn(CCCO)c3ncccc23)=C1c1cnccn1: 72.1%
Cc1nc(-c2ccccc2)c(-c2ccncc2)o1: 96.7%
Cn1sc(=O)n(Cc2ccccc2)c1=O: 105%
COc1ccc(OC)c2c(=S)c3ccccc3[nH]c12: 78.9%
O=C(O)c1ccc2c3c1cccc3c(=O)n1c3ccccc3nc21: 87.6%
NCCNc1ncc(C(N)=O)c(Nc2cccc(C(F)(F)F)c2)n1: 95%

Set 2 — effect on: cell-free assay; method: competition with immobilised ligand; concentration: 1 µM; endpoint: remaining binding
SMILES: Cc1cc(-n2nc(Cc3cc(F)cc(C(F)(F)F)c3)nc2C)ccc1C(N)=O
RPS6KB1 (Homo sapiens, UniProt P23443): 100%
MAPK13 (Homo sapiens, UniProt O15264): 100%
PIK3CA (Homo sapiens, UniProt P42336): 100%
CLK3 (Homo sapiens, UniProt P49761): 94%
ITK (Homo sapiens, UniProt Q08881): 93%

Set 3 — method: phase 2a trial; host: idiopathic pulmonary fibrosis patients; endpoint: patients with coagulopathy
SMILES: CC(C)n1cnc(-c2ccc(F)cc2)c1-c1ncc(C(=O)Nc2ccc(N3CCN(C)CC3)cc2)[nH]1
dose not given, adverse event grade 3, all dose arms pooled: 0%
60 mg once daily, adverse event grade 1: 0%
30 mg once daily, adverse event grade 4: 0%
dose not given, adverse event grade 2, all dose arms pooled: 0%
30 mg once daily, adverse event grade 3: 0%
60 mg once daily, adverse event grade 4: 0%
30 mg once daily, adverse event grade 5: 0%
60 mg once daily, adverse event grade 5: 0%

Set 4 — host: human; medium: microsomes or S9; concentration: 2 µM; time: 0.5 h; endpoint: remaining compound
Clc1nn2c(-c3ccccc3)nnc2c2ccccc12: 1.31%
CC12CCC(C(=O)N(c3ccccn3)c3ccccn3)(OC1=O)C2(C)C (stereo not drawn): 22.8%
COc1ccc(-n2c3c(c4nc(OC)ccc42)CCC3)cc1: 6.06%
COc1ccc(Cl)cc1-c1ccc2c(c1)c(C#N)cn2-c1ccc(F)cc1: 70.5%
Cc1nnc(SCC(=O)Nc2nc[nH]n2)s1: 94%

Some of these lines once more (set 4):
Clc1nn2c(-c3ccccc3)nnc2c2ccccc12: 1.31%
Cc1nnc(SCC(=O)Nc2nc[nH]n2)s1: 94%
COc1ccc(Cl)cc1-c1ccc2c(c1)c(C#N)cn2-c1ccc(F)cc1: 70.5%
COc1ccc(-n2c3c(c4nc(OC)ccc42)CCC3)cc1: 6.06%
CC12CCC(C(=O)N(c3ccccn3)c3ccccn3)(OC1=O)C2(C)C (stereo not drawn): 22.8%
